Measured values collected from several papers.
Parts stem from different laboratories: compare values within a part only.

Sample 1 — technique: universal PBM; form: double-stranded DNA, one strand shown; medium: in vitro; tested at: 600 nM; direction: higher = stronger binding
Target: Sal-like protein 4, full length isoform A (SALL4, Homo sapiens, UniProt Q9UJQ4, residues 1-1053)
Chain of UniProt Q9UJQ4 (whole entry, looked up): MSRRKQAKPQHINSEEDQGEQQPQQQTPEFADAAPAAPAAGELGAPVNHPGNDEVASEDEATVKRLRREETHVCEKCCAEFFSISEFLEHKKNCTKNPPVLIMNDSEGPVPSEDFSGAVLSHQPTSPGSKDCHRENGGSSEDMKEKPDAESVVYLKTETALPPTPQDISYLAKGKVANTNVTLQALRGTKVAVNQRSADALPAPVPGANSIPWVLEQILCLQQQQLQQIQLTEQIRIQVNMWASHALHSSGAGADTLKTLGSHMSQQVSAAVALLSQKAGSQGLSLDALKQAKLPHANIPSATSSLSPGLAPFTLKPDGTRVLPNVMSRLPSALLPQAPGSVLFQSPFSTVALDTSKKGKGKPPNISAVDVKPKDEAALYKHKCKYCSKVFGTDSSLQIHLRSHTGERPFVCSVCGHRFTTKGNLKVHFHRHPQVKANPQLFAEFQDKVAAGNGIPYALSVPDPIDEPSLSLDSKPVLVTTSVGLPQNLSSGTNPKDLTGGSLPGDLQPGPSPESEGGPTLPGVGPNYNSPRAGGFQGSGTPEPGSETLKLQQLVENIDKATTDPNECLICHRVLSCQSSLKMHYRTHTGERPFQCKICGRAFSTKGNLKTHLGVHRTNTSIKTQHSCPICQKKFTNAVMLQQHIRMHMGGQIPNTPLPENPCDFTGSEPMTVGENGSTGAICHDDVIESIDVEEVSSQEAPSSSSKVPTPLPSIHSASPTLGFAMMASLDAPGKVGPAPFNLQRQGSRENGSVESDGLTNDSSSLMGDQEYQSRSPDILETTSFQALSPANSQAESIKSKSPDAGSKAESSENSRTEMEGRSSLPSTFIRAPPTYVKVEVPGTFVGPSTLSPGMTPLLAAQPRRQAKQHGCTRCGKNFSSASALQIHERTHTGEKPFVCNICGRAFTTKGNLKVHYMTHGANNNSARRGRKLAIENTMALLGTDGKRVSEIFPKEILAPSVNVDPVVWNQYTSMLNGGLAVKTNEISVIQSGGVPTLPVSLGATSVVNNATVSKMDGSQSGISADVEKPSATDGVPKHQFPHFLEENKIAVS
Notes: 8-mer, flanks averaged, mean of replicates
Strand	E-score
CCGAAACC	-0.29
CACGGTAC	-0.25
GTCTGAGA	-0.052
GACCACGA	-0.227
AACCGGAA	-0.0787
TCGTCGCA	-0.172
CCCGTCTC	-0.375
CAGAACCC	-0.236
ATGCCAAA	0.072
ATAGAGGC	-0.0496
ATCGCGTC	-0.0604
AGCAAGCG	-0.18
ACGAGCAT	0.111
AATAGGGG	0.0163
AAGTTATT	0.325
GGTGCGCA	-0.0923
CCACAGGC	-0.271
ACATCAGG	0.069
CGAGAGGA	-0.115
CAGCTTTA	0.0606
AGGACAAT	0.075
GATCCGTA	-0.172
AATACAAC	0.264
AAACTATG	0.176
ACAGCAAA	0.205

Sample 2 — technique: protein binding microarray; form: double-stranded DNA, one strand shown; medium: in vitro; tested at: not given; baseline: not given; direction: higher = stronger binding
Target: Histone acetyltransferase KAT6A, winged helix 1, GST fusion (KAT6A, Homo sapiens, UniProt Q92794, residues 1-85)
Notes: 8-mer, flanks averaged, mean of 2 arrays, mostly near background
Construct (chain): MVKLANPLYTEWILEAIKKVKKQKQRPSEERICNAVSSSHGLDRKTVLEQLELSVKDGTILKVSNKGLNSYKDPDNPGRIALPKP
Strand	E-score
GTACTGAA	0.104
AGGAGGGA	-0.235
GGAAGAAA	-0.144
CGGTCCCC	0.205
CTACTCGA	0.0186
GTGCGTCA	0.102
CGGGTGAA	0.117
TGAGTCCA	-0.138
ACCAGTAC	-0.0925
GGTGCGGA	0.0183
GTGTGCCA	-0.153
GGCTCGCA	0.0443
CAGAATTC	-0.238
AGCAAGCG	0.172
ATGAAAGC	-0.127
CGCAGAGC	0.222
ATTGCCCA	-0.181
GGTAGTGA	-0.0442
CACCCGTC	0.297
CGTCACCA	0.0292
ATCTTGTC	-0.138
CCCCCAGA	-0.362
GACCCGGC	0.29
CCATACGC	0.0566
AGACGAAT	-0.136

Sample 3 — technique: RNA Bind-n-Seq; form: RNA; medium: in vitro; tested at: not given; baseline: input RNA pool; direction: higher = stronger binding
Target: RING finger protein unkempt homolog, zinc fingers 1-6, GST-SBP tag (UNK, Homo sapiens, UniProt Q9C0B0, residues 30-357)
Notes: RNA with constant flanks, human and mouse sites, ends assumed
Residues (chain): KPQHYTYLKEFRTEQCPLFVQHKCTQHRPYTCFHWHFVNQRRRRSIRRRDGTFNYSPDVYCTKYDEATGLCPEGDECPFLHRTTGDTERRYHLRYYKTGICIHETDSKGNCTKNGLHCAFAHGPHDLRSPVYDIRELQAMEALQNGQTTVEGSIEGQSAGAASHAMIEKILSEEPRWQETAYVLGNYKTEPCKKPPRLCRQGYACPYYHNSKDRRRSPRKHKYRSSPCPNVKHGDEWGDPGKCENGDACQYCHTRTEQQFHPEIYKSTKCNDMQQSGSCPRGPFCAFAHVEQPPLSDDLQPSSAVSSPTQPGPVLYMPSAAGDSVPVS
Strand	bound/input enrichment
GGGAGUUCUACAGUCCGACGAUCCCUGAAGAAAACCCUGGGUCACCUUCUAGAGAAUCACCUCUUUCAGCACCUUCAGAUCAUUCUUAGAUCCAAGGUGUAAUACCUUUUCAGUGUAUCAUGGGUGGUCUUGUUCAUCCCCUUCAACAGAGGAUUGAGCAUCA	0.135 ratio
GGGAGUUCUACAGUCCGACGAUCCUCCCACCCGCGUGUGUAAGCGCGGCCCGCCUCCUACAUCCAGCCCGCGCCCUCCAACCGCAUAGGAUCCAUGUAUUUAUUUUCCUUGAGUUUUUAUUUAUGCUGUAACUCGUGUCAAGCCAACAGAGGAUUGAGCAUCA	5 ratio
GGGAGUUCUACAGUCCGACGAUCCUGCCUCUUAACAAGUUAGAUGUCAGGGAUACAGCCUAUCCUGAAACCAAUGAUGCUAUUCCUAUGAUCAGCAAACUGAGGUACAAUCCCAGAUUUGACAAAGCUUUCAAACAUGUGUUUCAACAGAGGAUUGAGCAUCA	0.175 ratio
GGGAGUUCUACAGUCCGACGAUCUGUUUAUCCUGGCCUGCUCAGGUUUCAUUCUUACAGAACCCAGGACUCCUUGCCCAGGAAUAGUACCACCCACAAUGAGCUGGGUCCUUCCUGCCAAUCACUUAUUAAGAACAUGCCUUACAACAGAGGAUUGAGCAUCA	0.169 ratio
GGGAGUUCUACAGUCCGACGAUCACACGAUGUUUUUUCAAGAUUUUAGACCCUUUCUAAGUAGCAGUCCACUGGACCAAGAUAAUAGAGCCAAUGAAAGGGGUCACCAGACUCACACUGACUUCUGGGGAGCAAGACCUCCACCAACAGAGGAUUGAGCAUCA	0.415 ratio
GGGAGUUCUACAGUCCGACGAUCUUGUUGCUGCUCUGAGCAUCUGGAGGAACAGAAAACUAAGUUCAUGUCAUCCUGCUGUAAUGGGCAGAGCAUAUUUUUUUUGUAUUUAAAAGAUAAACUUCAAUAUGGAAUGCUAGAAACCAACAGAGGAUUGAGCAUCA	0.339 ratio
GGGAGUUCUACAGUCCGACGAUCGAUAAUGACAAAGAAGAUGGCUGCUUCUAUUUCAGGGAUAAAGUAAUUCCUAAUAAAGUGGGGACAUAUUGUAUCCAGUUUGGUUUUAUGAUGGAUAAAACAAAUAUUCUCAACAGUGAACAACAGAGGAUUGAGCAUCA	0.201 ratio
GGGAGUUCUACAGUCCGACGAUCUCAUAUGUGGACAUCAAGACUGGCAAGGUUACUUUGGAGUACAGACCUGUUAUCGACAAGACCUUGAAUGAGGCUGACUGUGCCACCGUACCUCCUGCUAUCCGCUCCUACUGAUGAAACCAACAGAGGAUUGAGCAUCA	0.0718 ratio
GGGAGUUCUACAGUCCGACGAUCCGGCCCCGUGACCCUAGUCGGCCGCUGAGAGGCGCGCGGAGUCUGGGCCGCUGCCGUCUAGGGGUCCCGUCCCGAGGCGUCCCCGGCAUCUCCGGCCCGAAUCCCGGAGUGCCGGGUCGCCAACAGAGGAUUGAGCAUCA	0.227 ratio
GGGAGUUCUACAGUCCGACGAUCUGGGAGUUCAGGUGUGCAAAGAGCUAUCAGAAAACCUAACUAGGUGUGUGGCUUAGUGGCACAAAUACAUUCACAUUGUGUAACUGUCACCACCUGUUUAAAAUUACAAAAACUUUCCUUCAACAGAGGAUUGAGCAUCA	0.165 ratio
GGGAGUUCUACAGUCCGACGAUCAUGAGUUAAAUAUAUUUAUAUGUACAUACAUAUAUAUAUCCCUUUACAUAUAUAUGUAUGUGGGUGUGAGUGUGUAUGUGUGGGUGUGUGUUACAUACACAGAAUCAGGCACUUACCUGCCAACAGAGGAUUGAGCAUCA	0.574 ratio

Sample 4 — technique: aptamer microarray, sandwich; form: DNA with 2'F-ANA; medium: in vitro; tested at: 200 nM; with: Cy3 exosite-II aptamer, 400 nM; direction: higher = stronger binding; strand: GGTTGGTGTGGTTGG
Target: Prothrombin, mature alpha-thrombin (F2, Homo sapiens, UniProt P00734)
Notes: whole 15-mer aptamer, many near background
Modification	mean fluorescence intensity [a.u.]
2'F-ANA at 1 2 5 6 9 13	48.6
2'F-ANA at 4 7 8 9 10 13 14 15	63.9
2'F-ANA at 1 4 6 8 13 14	116
2'F-ANA at 2 3 5 6 9 10 12 13 14	52.5
2'F-ANA at 1 10 12 13	67
2'F-ANA at 2 5 6 7 8 11 13	54.4
2'F-ANA at 1 2 5 6 7 11 14 15	56.4
2'F-ANA at 2 4 6 7 8 9 11 14 15	98.9
2'F-ANA at 2 4 8 9	387
2'F-ANA at 2 4 5 10 11 13 14 15	52.5
2'F-ANA at 3 6 10 15	534
2'F-ANA at 1 3 6 7 9 13 14	72.7
2'F-ANA at 2 3 5 6 7 9 10 12	62.3
2'F-ANA at 1 2 3 4 5 8 9	94.9
2'F-ANA at 1 2 3 6 9 12	386
2'F-ANA at 1 2	216
2'F-ANA at 1 2 6 9 12	291
2'F-ANA at 1 4 8 9 12 14	57.1

Sample 5 — technique: RNA Bind-n-Seq; form: RNA; medium: in vitro; tested at: 365 nM; baseline: no-protein control; direction: higher = stronger binding
Target: RNA binding protein fox-1 homolog 2, RRM domain, GST-SBP tag (RBFOX2, Homo sapiens, UniProt O43251-10, residues 100-194)
Notes: natural RNA segment, single round, ends assumed
Construct (chain): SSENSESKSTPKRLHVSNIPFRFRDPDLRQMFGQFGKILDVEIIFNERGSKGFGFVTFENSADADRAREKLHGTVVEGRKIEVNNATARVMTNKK
Strand	RBNS enrichment (R)
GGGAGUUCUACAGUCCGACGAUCCCCCUCAAACUCAAGUGUGAGCUCUGUGGACGGGUGGACUUUGCCUACAAGUUCAAGCGUUCCAAGCGCUUCUGUUCCAUGGCUUGUGCAAAGAGGUAUAAUGUGGGAUGUGGAAUUCUCGGGUGCCAA	0.369
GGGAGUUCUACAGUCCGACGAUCGUAUUUAAAUUAAGUCUUUGCUGCACUUAAAUUCAUACCCAGCCAAAAUGGAACUUUAGGCCAACCCCCAGCCUUCUGUUGCUAGGGUUGGUCUCCUACAGACACAGUGAUGGAAUUCUCGGGUGCCAA	0.204
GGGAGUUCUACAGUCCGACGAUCGGGGGGGUUAAUUUAUCAUUUAGAAAUCUUGCAUUUUCAAAAAUCCAGUGCAAGCGCCAGGUGAUCUGUGUCUGAGGAUACGAUUUUGAACCUUAUGAGCAGUGUACAAAUGGAAUUCUCGGGUGCCAA	0.623
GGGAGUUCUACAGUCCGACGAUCAUUCAGAGAGGCAUUACUUAGAAUGCUGACAUAAAGACAUGACCUUGAAGAAAAGAAUAGAAUUCUCUAGAGCAGAGUAUUUUAGUAUUUGUAACUGGCAGACUCUGGUUUGGAAUUCUCGGGUGCCAA	0.392
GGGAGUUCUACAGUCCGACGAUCCGGCUCUUGUAGAGGGCAUCCCCAGAUGUCCAAACCCUUUCCUGUGUACUGUUGAAAGCAUUGUUCUUCAGGGCCCUUGUCCAACAGUGGCCCGUGCAGUCUGGGGUCCAUGGAAUUCUCGGGUGCCAA	1.88
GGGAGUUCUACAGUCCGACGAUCUAUUUUUUAAAAAGUUGAGUAUCUGAGUUAAAAUUUCCAAAUCUUUAUUUUACACCACCUUAAAAAUUAUAUGAGAACAAGGUACAUGCAUUAUGUGUCACAUUACUGGGUGGAAUUCUCGGGUGCCAA	1.03
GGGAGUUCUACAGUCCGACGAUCACCUUUUGUAGAAAAAAAUGGCUUAUGCCACGUAAAGGUGAAUUUUUAGAAACCACCUUCUAGGCGUUUUUGGAACCCUUACUGAAAUCCCUCCCCUUGUUACAGAUGGCUGGAAUUCUCGGGUGCCAA	0.311
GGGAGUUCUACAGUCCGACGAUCGCCUCAUUAACACUCUUAACUCUGGGAUAGAACCCUAAGCAACAACAACAACAAAAGUGUCAUAUUUUAGAAGGCCUAGAGGUGACUCAUUUUAGAUAUAUAUACUUUGUUGGAAUUCUCGGGUGCCAA	0.507
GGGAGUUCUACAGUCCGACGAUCCUUCAGUGAUUGACUUAAAGACUGGGAGGUAUAUUGCCUGUGAGAGAAAUGUCUUUUCAUGAAUCCUAAGGACAUGCUGUGUCAGCUAAACCUACAAUUGAUUGCUUCUAUGGAAUUCUCGGGUGCCAA	0.542
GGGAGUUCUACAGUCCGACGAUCCAUGUCAAACAUGAGAUGUGUGGACUGUGGCACUUGCCUGGGUCACACACGGAGGCAUCCUACCCUUUUCUGGGGAAAGACACUGCCUGGGCUGACCCCGGUGGCGGCCCUGGAAUUCUCGGGUGCCAA	0.254
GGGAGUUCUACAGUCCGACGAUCCUGCAUCAAGAUAGCACCCCUUUGUGGGAGGCCCUGAGUAUCUUCUCUUCCUCUACUGCCUAACUGUUGGUGGGCUGUAUCAUUCAAUAAGAUCACUUCAUUUUCAACUUUGGAAUUCUCGGGUGCCAA	0.421
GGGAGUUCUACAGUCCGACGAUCUGUCCUGCCAACGGUAACAAUCAAGUAUGUCAUCAGACAUUGCCCAAUGUCCCCAGGGGGCAACACCCCUCUCUUGGACUUCAGGGUCAAGAGAAUCUCUGCUGGCUACCUGGAAUUCUCGGGUGCCAA	0.173

For quick reference, copied from above (sample 4):
Modification	mean fluorescence intensity [a.u.]
2'F-ANA at 1 2 5 6 7 11 14 15	56.4
2'F-ANA at 2 4 6 7 8 9 11 14 15	98.9
2'F-ANA at 1 2	216
2'F-ANA at 1 3 6 7 9 13 14	72.7
2'F-ANA at 2 4 8 9	387
2'F-ANA at 1 2 6 9 12	291
2'F-ANA at 3 6 10 15	534
2'F-ANA at 1 2 3 4 5 8 9	94.9
2'F-ANA at 1 2 3 6 9 12	386
2'F-ANA at 4 7 8 9 10 13 14 15	63.9
2'F-ANA at 1 4 6 8 13 14	116
